# Assay results of several laboratories.
# Compare with care: the assays were run in different laboratories. Values joined by “and” are separate records of one study, mostly repeats; a detail may differ. ± gives the spread as reported.
# SLC6A9: Sodium- and chloride-dependent glycine transporter 1 (SLC6A9, Homo sapiens, UniProt P48067)
# Chain of UniProt P48067 (whole entry, looked up): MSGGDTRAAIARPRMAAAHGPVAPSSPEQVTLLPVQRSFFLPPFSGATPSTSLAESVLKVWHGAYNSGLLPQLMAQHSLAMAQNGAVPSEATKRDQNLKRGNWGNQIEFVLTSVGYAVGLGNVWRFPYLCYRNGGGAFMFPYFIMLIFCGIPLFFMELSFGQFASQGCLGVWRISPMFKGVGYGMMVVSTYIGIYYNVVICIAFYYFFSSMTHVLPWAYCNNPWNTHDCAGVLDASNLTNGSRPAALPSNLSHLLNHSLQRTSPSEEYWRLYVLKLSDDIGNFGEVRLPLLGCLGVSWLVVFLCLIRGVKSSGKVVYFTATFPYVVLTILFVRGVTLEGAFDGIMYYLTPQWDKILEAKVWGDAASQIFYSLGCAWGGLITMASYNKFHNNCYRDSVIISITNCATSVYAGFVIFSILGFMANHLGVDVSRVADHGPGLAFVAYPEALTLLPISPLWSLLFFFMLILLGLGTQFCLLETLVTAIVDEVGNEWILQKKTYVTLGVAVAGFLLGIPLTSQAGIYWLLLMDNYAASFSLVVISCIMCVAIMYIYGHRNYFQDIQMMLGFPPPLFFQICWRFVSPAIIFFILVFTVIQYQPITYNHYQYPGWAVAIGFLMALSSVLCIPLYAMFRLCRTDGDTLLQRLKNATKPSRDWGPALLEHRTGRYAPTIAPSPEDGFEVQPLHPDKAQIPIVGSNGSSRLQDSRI
# Gria2/Glutamate receptor 3: Gria2/Glutamate receptor 3 (Rattus norvegicus, UniProt P19491+P19492)
# Chain of UniProt P19491 (whole entry, looked up): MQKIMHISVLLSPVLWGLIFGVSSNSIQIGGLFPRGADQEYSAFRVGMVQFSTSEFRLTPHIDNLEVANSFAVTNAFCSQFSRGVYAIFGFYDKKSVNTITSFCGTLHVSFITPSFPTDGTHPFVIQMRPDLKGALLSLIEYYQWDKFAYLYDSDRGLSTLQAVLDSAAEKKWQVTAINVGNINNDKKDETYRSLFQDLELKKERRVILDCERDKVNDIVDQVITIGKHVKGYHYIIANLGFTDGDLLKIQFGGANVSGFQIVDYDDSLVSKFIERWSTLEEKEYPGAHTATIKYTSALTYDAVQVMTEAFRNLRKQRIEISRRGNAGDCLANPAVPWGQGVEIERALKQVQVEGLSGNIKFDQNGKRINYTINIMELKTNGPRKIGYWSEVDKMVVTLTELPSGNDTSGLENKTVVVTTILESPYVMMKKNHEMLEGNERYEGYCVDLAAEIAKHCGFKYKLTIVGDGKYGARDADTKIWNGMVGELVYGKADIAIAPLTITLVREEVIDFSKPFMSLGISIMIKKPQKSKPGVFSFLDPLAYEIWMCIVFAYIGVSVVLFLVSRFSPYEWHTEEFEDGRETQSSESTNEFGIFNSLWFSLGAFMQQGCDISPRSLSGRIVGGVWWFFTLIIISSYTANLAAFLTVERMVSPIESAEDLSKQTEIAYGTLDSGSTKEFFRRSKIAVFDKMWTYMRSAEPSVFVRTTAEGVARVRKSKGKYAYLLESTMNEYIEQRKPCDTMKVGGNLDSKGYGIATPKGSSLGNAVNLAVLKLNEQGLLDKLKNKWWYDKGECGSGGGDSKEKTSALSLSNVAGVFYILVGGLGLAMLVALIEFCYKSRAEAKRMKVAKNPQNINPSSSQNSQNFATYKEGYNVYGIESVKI
# Chain of UniProt P19492 (whole entry, looked up): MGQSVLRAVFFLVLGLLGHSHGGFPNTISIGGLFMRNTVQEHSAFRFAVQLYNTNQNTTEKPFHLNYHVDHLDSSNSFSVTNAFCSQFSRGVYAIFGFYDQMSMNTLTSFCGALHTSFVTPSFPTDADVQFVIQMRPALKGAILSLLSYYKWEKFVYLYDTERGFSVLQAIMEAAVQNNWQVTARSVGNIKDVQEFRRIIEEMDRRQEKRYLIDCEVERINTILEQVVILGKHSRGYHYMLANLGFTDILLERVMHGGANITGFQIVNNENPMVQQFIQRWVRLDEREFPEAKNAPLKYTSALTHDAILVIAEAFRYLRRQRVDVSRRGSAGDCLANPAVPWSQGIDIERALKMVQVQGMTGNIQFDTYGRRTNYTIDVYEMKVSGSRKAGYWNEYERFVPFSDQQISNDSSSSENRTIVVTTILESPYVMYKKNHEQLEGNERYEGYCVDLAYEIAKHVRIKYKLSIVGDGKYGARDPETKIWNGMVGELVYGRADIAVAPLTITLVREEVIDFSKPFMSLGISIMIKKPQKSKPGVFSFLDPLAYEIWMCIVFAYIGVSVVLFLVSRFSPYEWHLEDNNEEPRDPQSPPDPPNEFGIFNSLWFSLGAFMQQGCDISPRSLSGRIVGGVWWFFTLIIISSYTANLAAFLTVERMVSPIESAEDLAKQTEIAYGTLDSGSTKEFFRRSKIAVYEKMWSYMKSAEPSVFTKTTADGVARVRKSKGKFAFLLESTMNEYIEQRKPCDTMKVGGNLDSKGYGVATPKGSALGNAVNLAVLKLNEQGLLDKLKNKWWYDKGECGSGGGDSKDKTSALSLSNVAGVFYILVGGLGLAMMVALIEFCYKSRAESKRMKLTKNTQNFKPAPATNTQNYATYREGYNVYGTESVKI
# USP14: Ubiquitin carboxyl-terminal hydrolase 14 (USP14, Homo sapiens, UniProt P54578)
# Chain of UniProt P54578 (whole entry, looked up): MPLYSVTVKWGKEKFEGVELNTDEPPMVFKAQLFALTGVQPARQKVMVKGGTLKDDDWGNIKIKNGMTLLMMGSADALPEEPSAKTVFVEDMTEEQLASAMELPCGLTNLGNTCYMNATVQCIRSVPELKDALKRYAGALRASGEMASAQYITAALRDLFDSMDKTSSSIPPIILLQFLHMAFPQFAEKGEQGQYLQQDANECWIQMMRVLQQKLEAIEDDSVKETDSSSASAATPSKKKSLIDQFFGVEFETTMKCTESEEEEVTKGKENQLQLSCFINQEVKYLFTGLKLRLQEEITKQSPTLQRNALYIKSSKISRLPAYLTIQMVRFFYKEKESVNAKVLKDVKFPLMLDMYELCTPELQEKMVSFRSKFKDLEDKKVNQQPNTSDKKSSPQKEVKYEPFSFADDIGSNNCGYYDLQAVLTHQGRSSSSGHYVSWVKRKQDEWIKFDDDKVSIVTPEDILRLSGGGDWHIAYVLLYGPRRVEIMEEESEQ
# T1: DNA hairpin, hairpin; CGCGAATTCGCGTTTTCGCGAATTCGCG
# Chain of UniProt P46089 (whole entry, unmodified, looked up): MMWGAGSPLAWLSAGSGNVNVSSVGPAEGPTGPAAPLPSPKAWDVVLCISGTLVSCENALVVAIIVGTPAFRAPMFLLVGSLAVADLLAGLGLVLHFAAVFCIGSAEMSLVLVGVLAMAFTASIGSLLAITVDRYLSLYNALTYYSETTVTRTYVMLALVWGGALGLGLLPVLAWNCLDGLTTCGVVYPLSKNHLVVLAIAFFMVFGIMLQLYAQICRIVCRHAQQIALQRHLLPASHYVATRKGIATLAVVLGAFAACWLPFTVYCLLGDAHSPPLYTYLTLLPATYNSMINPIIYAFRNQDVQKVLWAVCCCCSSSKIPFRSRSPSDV
# Chain of UniProt P51575 (whole entry, looked up): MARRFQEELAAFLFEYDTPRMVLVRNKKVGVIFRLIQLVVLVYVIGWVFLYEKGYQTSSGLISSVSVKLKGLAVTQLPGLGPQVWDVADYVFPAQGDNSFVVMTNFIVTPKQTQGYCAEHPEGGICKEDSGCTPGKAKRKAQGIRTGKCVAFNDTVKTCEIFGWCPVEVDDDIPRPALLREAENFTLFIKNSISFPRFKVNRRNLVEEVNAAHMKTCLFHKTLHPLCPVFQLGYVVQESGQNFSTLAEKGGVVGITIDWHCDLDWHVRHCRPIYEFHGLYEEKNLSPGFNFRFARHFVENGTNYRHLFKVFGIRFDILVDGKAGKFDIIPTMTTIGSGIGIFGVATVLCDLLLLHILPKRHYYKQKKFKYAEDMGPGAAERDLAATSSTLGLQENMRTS
# Chain of UniProt Q9H4M9 (whole entry, looked up): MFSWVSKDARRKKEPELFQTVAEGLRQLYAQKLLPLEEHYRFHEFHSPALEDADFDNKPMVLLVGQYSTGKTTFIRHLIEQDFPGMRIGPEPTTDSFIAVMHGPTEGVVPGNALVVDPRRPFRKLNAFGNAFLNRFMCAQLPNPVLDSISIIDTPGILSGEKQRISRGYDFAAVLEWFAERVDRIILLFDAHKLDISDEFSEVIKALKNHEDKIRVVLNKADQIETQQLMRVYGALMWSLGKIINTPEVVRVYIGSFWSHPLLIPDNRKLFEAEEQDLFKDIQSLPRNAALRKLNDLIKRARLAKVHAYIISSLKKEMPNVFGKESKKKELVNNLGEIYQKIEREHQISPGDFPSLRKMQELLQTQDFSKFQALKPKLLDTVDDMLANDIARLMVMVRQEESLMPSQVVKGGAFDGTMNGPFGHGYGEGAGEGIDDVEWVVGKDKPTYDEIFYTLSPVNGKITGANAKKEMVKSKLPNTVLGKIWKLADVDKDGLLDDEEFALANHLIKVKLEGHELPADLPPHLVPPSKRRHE
# Chain of UniProt P08191 (whole entry, unmodified, looked up): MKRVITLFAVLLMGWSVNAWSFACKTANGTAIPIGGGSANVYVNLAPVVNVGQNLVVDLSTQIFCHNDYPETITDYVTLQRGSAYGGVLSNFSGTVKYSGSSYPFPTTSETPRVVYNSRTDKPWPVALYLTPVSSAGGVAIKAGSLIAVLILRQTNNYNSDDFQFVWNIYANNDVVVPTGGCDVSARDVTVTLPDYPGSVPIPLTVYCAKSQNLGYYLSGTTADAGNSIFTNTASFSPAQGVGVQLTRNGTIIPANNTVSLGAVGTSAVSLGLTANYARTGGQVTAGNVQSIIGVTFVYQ
# Chain of UniProt Q9EP73 (whole entry, looked up): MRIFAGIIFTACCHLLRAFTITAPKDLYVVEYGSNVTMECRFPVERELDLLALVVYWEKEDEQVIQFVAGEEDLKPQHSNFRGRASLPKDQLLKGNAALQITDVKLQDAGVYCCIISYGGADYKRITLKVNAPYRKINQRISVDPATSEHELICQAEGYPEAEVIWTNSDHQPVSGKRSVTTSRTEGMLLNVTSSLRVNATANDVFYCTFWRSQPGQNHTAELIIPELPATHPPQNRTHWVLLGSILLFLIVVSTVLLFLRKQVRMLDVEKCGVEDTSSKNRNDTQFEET
SMILES,target or system,test,system,setting,scale,endpoint,value
Nc1ncc(-c2cc(-c3cnn(CC(F)(F)F)c3)ncc2F)nc1C(=O)NC1CNCC(F)C1 (stereo not shown),MAPKAPK2,KINOMEscan,,1 µM,relative to: DMSO control,remaining binding,85%
COc1ccc(C(/C=C\CCN2CCCC(C(=O)O)C2)(c2ccc(OC)cc2)c2ccc(OC)cc2)cc1 (stereo not shown),SLC6A9,cell-free assay,,1 µM,,remaining signal,66.9%
CC(=O)NCCN(c1nc(N2CC(Oc3ccccc3)C2)nc(N2CC3C(CCOc4cc(-c5scnc5C)ccc4CNC(=O)[C@@H]4C[C@@H](O)CN4C(=O)[C@@H](NC(=O)C4(F)CC4)C(C)(C)C)C3C2)n1)C(C)C (stereo partly shown),"VHL/BRD9, with Elongin B/C (Homo sapiens, UniProt P40337+Q9H8M2)",native mass spectrometry,,"5 µM, added: BRD9 and VCB at 5 µM",relative to: unbound BRD9,ternary complex formation,288%
CCCC[C@H](NC(=O)COCCOCCNC(=O)CN1CCN(CC(=O)O)CCN(CC(=O)O)CC1)C(=O)N[C@H]1CC(=O)NCCCC[C@@H](C(N)=O)NC(=O)[C@H](Cc2c[nH]c3ccccc23)NC(=O)[C@H](CCCNC(=N)N)NC(=O)[C@@H](Cc2ccccc2)NC(=O)[C@H](Cc2c[nH]cn2)NC1=O [technetium-99m labelled],,,"C57 mouse, brain","intravenous, 0.037 MBq, 24 h",,tissue uptake,0.01 ± 0.01 %ID/g
Cc1cc(NC(=O)c2cccc(N)c2)ccc1Nc1nccc(-c2cccnc2)n1,"MAPK9 (Homo sapiens, UniProt P45984)","enzyme activity, inhibitor",,"400 µM, unit not given",relative to: vehicle,remaining activity,0.00103
CC[C@H](C)[C@H](NC(=O)[C@@H](NC(=O)[C@@H](NC(=O)[C@@H](NC(=O)[C@H](CCCNC(=N)N)NC(=O)[C@H](CCC(=O)O)NC(=O)[C@H](CCC(=O)O)NC(=O)[C@H](C)NC(=O)[C@H](CCC(=O)O)NC(=O)CNC(=O)[C@H](C)NC(=O)CN)C(C)C)C(C)C)C(C)C)C(=O)N[C@@H](CC(=O)O)C(=O)N[C@@H](CC(=O)O)C(=O)N[C@@H](CC(=O)O)C(=O)N[C@@H](CCC(=O)O)C(=O)N[C@@H](CC(=O)O)C(=O)N[C@@H](CC(=O)O)C(=O)N[C@@H](CC(=O)O)C(=O)N[C@@H](C)C(=O)N[C@@H](CCC(=O)O)C(=O)N[C@@H](CC(N)=O)C(=O)N[C@@H](CO)C(=O)N[C@@H](CO)C(=O)N[C@@H](CO)C(=O)N[C@@H](CCCNC(=N)N)C(=O)N[C@@H](Cc1ccc(O)cc1)C(=O)O,"Small ubiquitin-related modifier 1 (Homo sapiens, UniProt P63165, C52A)",isothermal titration calorimetry,,"pH 7.4, SUMO1 construct",,-TΔS,-12 ± 0.1 kcal/mol
Cc1cc(=O)oc2cc(NC(=O)CCCCCCC(=O)NO)ccc12,"HDAC8 (Homo sapiens, UniProt Q9BY41)",ITC,Tris-HCl buffer,288 K,,TΔS°,3.52 kcal/mol
O=C(O)Cc1cc2c(cc1C(=O)c1ccccc1Cl)OCO2,Gria2/Glutamate receptor 3,"glutamate-evoked current, whole-cell patch clamp",HEK-293T,"concentration not given, weighted tau, 1 ms pulse, added: glutamate",,deactivation time constant,8.6 ± 0.6 ms
C=CC(=O)Nc1cccc(Cn2ncc3cnc(Nc4cnn(CCOC)c4)nc32)c1,CLK3 human,"binding, KINOMEscan",,100 nM,lower = stronger binding,percent of control,100%
CC(C)Oc1cc(Cl)ccc1CNc1cc(-c2ccccc2)nc2ncnn12,"GPR3 (Homo sapiens, UniProt P46089, V155A)","cAMP level, cAMP GloSensor",,10 pM,higher = more cAMP,cAMP luminescence,23500 a.u. and 31000 a.u. and 26700 a.u. and 25900 a.u.
CC(=O)OC[C@H]1O[C@@H](n2cc(CSc3nc4ccccc4n3Cc3cn([C@@H]4O[C@H](COC(C)=O)[C@@H](OC(C)=O)C(OC(C)=O)[C@H]4OC(C)=O)nn3)nn2)[C@H](OC(C)=O)C(OC(C)=O)[C@@H]1OC(C)=O (stereo in doubt),DNA topoisomerase I (calf thymus),"enzyme activity, inhibitor",MDA-MB-231,"50, 100, 500 ppm, 30 min, 37 °C",,geometric mean inhibition,63.3%
Cc1nn(-c2cccc(N)c2)c(=O)c2cnc(Nc3ccc(N4CCNCC4)cc3)nc12,"MAPK3 (Homo sapiens, UniProt P27361)","kinase activity, inhibitor, SelectScreen kinase profiling",,,,IC50,> 10 µM
O=C(Nc1cc(C(=O)Nc2ccc(S(=O)(=O)O)cc2S(=O)(=O)O)cc(C(=O)Nc2ccc(S(=O)(=O)O)cc2S(=O)(=O)O)c1)Nc1cc(C(=O)Nc2ccc(S(=O)(=O)O)cc2S(=O)(=O)O)cc(C(=O)Nc2ccc(S(=O)(=O)O)cc2S(=O)(=O)O)c1,"P2X purinoceptor 1 (P2RX1, Homo sapiens, UniProt P51575)","antagonist, calcium influx",,"31.6 nM, added: submaximal α,β-methylene ATP",relative to: ionomycin response,calcium influx,99% and 60.6% and 88.8% and 83.7%
Cc1ncsc1-c1ccc(C(C)NC(=O)C2CC(O)CN2C(=O)C(NC(=O)CCCCCCCCCCN2CCCC(Nc3ncc(Cl)c(Nc4ccccc4S(=O)(=O)C(C)C)n3)C2)C(C)(C)C)cc1 (stereo not shown),22Rv1,"RNA-seq, item: THUMPD3 mRNA",,concentration not given,relative to: DMSO,log2 fold change,-1.1
Cc1ncc2[nH]c(=O)n(-c3cnc(Oc4cccc5c4C(C)(C)CO5)c(Cl)c3C)c2n1,"KCNC1 (Homo sapiens, UniProt P48547)","potassium current, manual patch clamp",,1 µM,,deactivation time constant τ2,no effect
CNS(=O)(=O)Nc1nccc(Cc2c(C)c3ccc(Oc4ncccc4F)cc3oc2=O)c1F,OV-90,cell viability,,7 days,,IC50,0.0117 µM
CC1=CC(=O)CN(S(=O)(=O)c2ccc(C)cc2)C1,USP14,"enzyme activity, inhibitor",,17 µM,,inhibition,8%
CN1CCN(c2ccc3nc(-c4ccc5nc(-c6ccc(OCCCCNC(=O)c7cccc8c7C(=O)OC87c8ccc(N(C)C)cc8[Si](C)(C)c8cc(N(C)C)ccc87)cc6)[nH]c5c4)[nH]c3c2)CC1,"T1, DNA hairpin, hairpin",fluorescence titration,,"1 h, apparent, single-site fit, added: probe 3 nM",,Kd,5.2 µM
COC1CN([C@H]2CC[C@H]([C@@]3(C)Oc4c(Cl)cc(C(=O)NCc5c(SC)cc(C)[nH]c5=O)c(C)c4O3)CC2)C1,,"RNA-seq, item: KAZN mouse homolog","mouse, HT-1376 xenograft, whole blood",dose not given,relative to: vehicle,log2 fold change,0.634
CC(C)[C@@H]1NC(=O)[C@H](Cc2ccccc2)NC(=O)CSC[C@@H](C(N)=O)NC(=O)[C@H](CCC(=O)O)NC(=O)[C@H](CO)NC(=O)[C@H](Cc2c[nH]c3cccc(Cl)c23)NC(=O)[C@H](C2CCCCC2)NC(=O)[C@H](C(C)C)NC(=O)[C@H](Cc2ccc(O)cc2)NC(=O)[C@H](CC(=O)O)NC(=O)[C@H](Cc2c[nH]c3ccccc23)NC(=O)[C@H](Cc2ccc(N)nc2)NC(=O)[C@H](Cc2c[nH]c3ccc(Cl)cc23)NC(=O)[C@H](CCC(=O)O)NC1=O,"Interleukin-1 receptor-like 2 (IL1RL2, Homo sapiens, UniProt Q9HB29)","reporter gene (SEAP), inhibitor, HEK-Blue IL-36R reporter",HEK-Blue IL-36R cells,"33.33 µM, 6 h, added: IL-36β 30 ng/mL",,remaining activity,91%
CCCCCCCO[C@H]1[C@H](OC)O[C@H](CO)[C@@H](O)[C@H](O)[C@@H]1O,"Type 1 fimbrin D-mannose specific adhesin, lectin domain (fimH, Escherichia coli K-12, UniProt P08191)","binding, isothermal titration calorimetry",,"25 °C, individual direct titrations",,ΔG,-7.7 kcal/mol and -7.74 kcal/mol
O=C1c2sc(-c3ccc(N4CCC(CO)CC4)nc3F)nc2CCN1c1cccnc1,"TAR DNA-binding protein 43, aggregated (TARDBP, Homo sapiens, UniProt Q13148)",radioligand binding,"human, FTLD-TDP type C sarkosyl-insoluble extract",52.06 nM,,specific binding,0.795 nM and 0.454 nM and 0.487 nM
COC(=O)Cc1cc2c(cc1C(=O)c1ccccc1Cl)OCO2,Gria2/Glutamate receptor 3,"glutamate-evoked current, whole-cell patch clamp",HEK-293T,"concentration not given, pH 7.4, holding potential -60 mV, added: 10 mM glutamate",,current amplitude,226 ± 15 pA
Cc1ccc(C2CCN(C3CCCCC3O)CC2)cc1 (racemic),"SIGMAR1 (Homo sapiens, UniProt Q99720)",,"rat liver (sigma2), human sigma1",,relative to: Ki sigma2 over Ki sigma1,selectivity ratio,4.4
CC[C@H](C)[C@H](NC(=O)[C@@H]1CCCN1C(=O)CNC(=O)[C@H](Cc1c[nH]c2ccccc12)NC(=O)[C@@H](NC(=O)[C@@H](NC(=O)[C@H](Cc1ccc(O)cc1)NC(=O)[C@@H](NC(=O)CNC(=O)[C@@H](NC(=O)CNC(=O)[C@H](CCC(=O)O)NC(=O)[C@H](CC(=O)O)NC(=O)[C@H](C)NC(=O)[C@H](CC(=O)O)NC(=O)[C@@H](NC(=O)[C@H](CC(C)C)NC(=O)[C@H](CC(C)C)NC(=O)[C@H](C)NC(=O)[C@H](CC(C)C)NC(=O)[C@H](CC(=O)O)NC(=O)[C@H](CC(C)C)NC(=O)[C@H](CC(C)C)NC(=O)[C@H](CC(C)C)NC(=O)[C@H](CC(C)C)NC(=O)[C@@H]1CCCN1C(=O)[C@@H](NC(=O)[C@@H](NC(=O)[C@H](Cc1ccccc1)NC(=O)[C@H](CC(C)C)NC(=O)[C@H](Cc1c[nH]c2ccccc12)NC(=O)[C@H](CC(=O)O)NC(=O)[C@H](C)NC(=O)[C@H](Cc1ccc(O)cc1)NC(=O)[C@H](CCCNC(=N)N)NC(=O)[C@H](C)NC(=O)[C@H](Cc1c[nH]c2ccccc12)NC(=O)[C@H](Cc1ccc(O)cc1)NC(=O)[C@@H](NC(=O)[C@@H]1CCCN1C(=O)[C@H](CC(N)=O)NC(=O)[C@H](CCC(N)=O)NC(=O)[C@H](CCC(=O)O)NC(=O)[C@H](C)NC(=O)[C@H](C)NC(=O)CCCCCN1C(=O)CC(SC[C@H](N)C(=O)N[C@@H](Cc2c[nH]cn2)C(=O)N[C@@H](Cc2c[nH]cn2)C(=O)N[C@@H](Cc2c[nH]cn2)C(=O)N[C@@H](Cc2c[nH]cn2)C(=O)N[C@@H](Cc2c[nH]cn2)C(=O)N[C@@H](Cc2c[nH]cn2)C(=O)N[C@@H](Cc2c[nH]cn2)C(=O)N[C@@H](Cc2c[nH]cn2)C(=O)N[C@@H](Cc2c[nH]cn2)C(=O)N[C@@H](Cc2c[nH]cn2)C(=O)N[C@@H](Cc2c[nH]cn2)C(=O)N[C@@H](Cc2c[nH]cn2)C(=O)N[C@@H](Cc2c[nH]cn2)C(=O)N[C@@H](Cc2c[nH]cn2)C(=O)N[C@@H](Cc2c[nH]cn2)C(=O)N[C@@H](CS)C(=O)N[C@H](C(=O)N[C@@H](CCCNC(=N)N)C(=O)N[C@@H](C)C(=O)N[C@@H](CCCNC(=N)N)C(=O)N[C@H](C(=O)N[C@@H](CCCNC(=N)N)C(=O)O)[C@@H](C)O)C(C)C)C1=O)[C@@H](C)CC)[C@@H](C)O)[C@@H](C)O)C(C)C)[C@@H](C)O)[C@@H](C)CC)C(C)C)[C@@H](C)CC)C(=O)O (stereo partly shown),"Cd274 (Mus musculus, UniProt Q9EP73)",western blot,4T1,"0.5 µM, 12 h",relative to: untreated,protein level,62.4%
COC(=O)c1[nH]c2sc3c(c2c1N)CCCC3,USP14,"enzyme activity, inhibitor",,17 µM,,inhibition,53%
NC(=O)C[C@@H]1NC(=O)[C@H](Cc2ccc(O)cc2)NC(=O)CNC(=O)CNC(=O)[C@H](CCC(=O)O)NC(=O)[C@H](CCC(=O)O)NC(=O)[C@H](Cc2ccccc2)NC(=O)[C@@H]2CCCN2C1=O,"EH domain-containing protein 1, EH domain (Homo sapiens, UniProt Q9H4M9)","peptide binding, ITC",,"concentration not given, 15 mM NaCl",,binding stoichiometry,1.01 and 1.04 and 1.17 and 0.881
COC(=O)c1ccccc1NC(=O)Nc1ccc(N2CCOCC2)c2nonc12,USP14,"enzyme activity, inhibitor",,17 µM,,inhibition,51%
CCCCCCCCCCCCC/C=C/C=O,"Outer kinetochore KNL1 complex subunit ZWINT (ZWINT, Homo sapiens, UniProt O95229)","competitive isoTOP-ABPP, item: ZWINT cysteine peptide",Ramos soluble proteome,"100 µM, added: iodoacetamide probe","relative to: DMSO over compound-treated, higher = stronger cysteine blockade",isoTOP-ABPP competition ratio,1.1
CN1C(=O)Cc2ccccc2C1=O,USP14,"enzyme activity, inhibitor",,17 µM,,inhibition,23%
COc1ccc(C(OCCN2CCCC(C(=O)O)C2)(c2ccc(CO)cc2)c2ccc(OC)cc2)cc1 (stereo not shown),SLC6A9,cell-free assay,,1 µM,,remaining signal,78.1%

# Repeated from above:
SMILES,target or system,test,system,setting,scale,endpoint,value
CC(=O)NCCN(c1nc(N2CC(Oc3ccccc3)C2)nc(N2CC3C(CCOc4cc(-c5scnc5C)ccc4CNC(=O)[C@@H]4C[C@@H](O)CN4C(=O)[C@@H](NC(=O)C4(F)CC4)C(C)(C)C)C3C2)n1)C(C)C (stereo partly shown),"VHL/BRD9, with Elongin B/C (Homo sapiens, UniProt P40337+Q9H8M2)",native mass spectrometry,,"5 µM, added: BRD9 and VCB at 5 µM",relative to: unbound BRD9,ternary complex formation,288%
CCCC[C@H](NC(=O)COCCOCCNC(=O)CN1CCN(CC(=O)O)CCN(CC(=O)O)CC1)C(=O)N[C@H]1CC(=O)NCCCC[C@@H](C(N)=O)NC(=O)[C@H](Cc2c[nH]c3ccccc23)NC(=O)[C@H](CCCNC(=N)N)NC(=O)[C@@H](Cc2ccccc2)NC(=O)[C@H](Cc2c[nH]cn2)NC1=O [technetium-99m labelled],,,"C57 mouse, brain","intravenous, 0.037 MBq, 24 h",,tissue uptake,0.01 ± 0.01 %ID/g
Cc1cc(NC(=O)c2cccc(N)c2)ccc1Nc1nccc(-c2cccnc2)n1,"MAPK9 (Homo sapiens, UniProt P45984)","enzyme activity, inhibitor",,"400 µM, unit not given",relative to: vehicle,remaining activity,0.00103
